Assay results of several laboratories.
± gives the spread as reported. In brackets after ≈: the same amount, converted by molar mass.

SMILES	test	system	conditions	how to read	measurement	result
CC(C)(CCCC/C=C/CCCCCC(C)(C)C(=O)O)C(=O)O	–	rhesus monkeys, spontaneous hyperlipidemia	20 mg/kg, 2 weeks	–	body weight	no effect
CN(C)c1ccc(C(=O)NCCCCN2CCN(c3ccccc3O[11CH3])CC2)cc1	–	Sprague Dawley rat, male, total brain	intravenous, 30 min	–	brain uptake	0.107 %ID/g
O=C([O-])C[N+]12CC(=O)[O][Re-2]1[O]P(=O)([O-])C2.[C-]#[O+].[C-]#[O+].[C-]#[O+] (stereo not shown)	HPLC	aqueous solution	1 d, pH 7, room temperature	–	isomer fraction at equilibrium	62%
CC(C)[C@H](N)C(=O)N[C@@H](Cc1ccc(O)cc1)C(=O)N[C@@H](CCCCN)C(=O)N[C@H](C(=O)N[C@@H](CCCCN)C(=O)N[C@H](C(=O)N[C@@H](CCCCN)C(=O)N[C@H](C(=O)N[C@@H](CCCCN)C(=O)N[C@H](C(=O)N[C@@H](CCCCN)C(=O)N[C@H](C(=O)N[C@@H](CCCCN)C(=O)N[C@H](C(=O)N[C@@H](CCCCN)C(=O)N[C@H](C(=O)N[C@@H](CCCCN)C(=O)N[C@H](C(=O)O)[C@@H](C)O)C(C)C)[C@@H](C)O)C(C)C)[C@@H](C)O)C(C)C)[C@@H](C)O)C(C)C	circular dichroism	PBS	0.05 mg/mL, shift at 222 nm	–	transition onset	20 % TFE
CCN(Cc1ccccc1)C(=O)CCc1nc(CN2CCN(C(=O)Cc3ccc(OC)c(OC)c3)CC2)no1	–	rat	intravenous, 1 mg/kg, 15 min	reference: dorsal root ganglion over brain	tissue concentration ratio	~31.6
CC[C@H](C)C(=O)N1CCC(NC(=O)Nc2ccc(OC(F)(F)F)c(F)c2)CC1	–	human, plasma	oral, 2 mg, single dose, healthy volunteers	–	Cmax	0.00469 µg/mL
CSCC[C@H](NC(=O)CNC(=O)[C@H](CC(=O)O)NC(=O)[C@@H](NC(=O)[C@@H](NC(=O)[C@@H](NC(=O)CNC(=O)[C@H](CCC(N)=O)NC(=O)[C@H](CCSC)NC(=O)[C@H](CC(=O)O)NC(=O)[C@H](C)NC(=O)[C@H](C)NC(=O)[C@@H](NC(=O)[C@H](CO)NC(=O)[C@@H](N)CC(C)C)[C@@H](C)O)C(C)C)C(C)C)[C@@H](C)O)C(=O)N[C@@H](C)C(=O)N[C@@H](CO)C(=O)NCC(=O)N[C@@H](CC(C)C)C(=O)N[C@@H](CC(=O)O)C(=O)N[C@@H](CCCCN)C(=O)N[C@@H](CC(=O)O)C(=O)N[C@@H](Cc1ccc(O)cc1)C(=O)N[C@@H](CC(C)C)C(=O)N[C@@H](CCCCN)C(=O)N1CCC[C@H]1C(=O)N[C@@H](CC(=O)O)C(=O)N[C@@H](CC(=O)O)C(=O)O	–	human, serum	intravenous, 1.66 mg/kg, patients, infusion	–	Vd	0.27 L/kg
CCN(CCCCOc1ccc(CCC(=O)N2CCC(Cc3ccccc3)CC2)cc1OC)Cc1ccccc1	–	Sprague-Dawley rat, both sexes, faeces, urine and plasma	oral, 25 mg/kg	–	total number of metabolites	22
CCCCCCCC(=O)OC[C@H](NC(=O)[C@H](CO)NC(=O)CN)C(=O)N[C@@H](Cc1ccccc1)C(=O)N[C@@H](CC(C)C)C(=O)N[C@@H](CO)C(=O)N1CCC[C@H]1C(=O)N[C@@H](CCC(=O)O)C(=O)N[C@@H](Cc1cnc[nH]1)C(=O)N[C@@H](CCC(N)=O)C(=O)N[C@@H](CCCNC(=N)N)C(=O)N[C@H](C(=O)N[C@@H](CCC(N)=O)C(=O)N[C@@H](CCC(N)=O)C(=O)N[C@@H](CCCNC(=N)N)C(=O)N[C@@H](CCCCN)C(=O)N[C@@H](CCC(=O)O)C(=O)N[C@@H](CO)C(=O)N[C@@H](CCCCN)C(=O)N[C@@H](CCCCN)C(=O)N1CCC[C@H]1C(=O)N1CCC[C@H]1C(=O)N[C@@H](C)C(=O)N[C@@H](CCCCN)C(=O)N[C@@H](CC(C)C)C(=O)N[C@@H](CCC(N)=O)C(=O)N1CCC[C@H]1C(=O)N[C@@H](CCCNC(=N)N)C(=O)O)C(C)C	ELISA	human, both sexes, plasma	intravenous infusion, 5 µg/kg/h, 65 min infusion	–	AUC(0-90)	0.0149 ± 0.0029 µg·h/mL
COC(=O)C[C@](O)(CCCC(C)(C)OC(C)=O)C(=O)O[C@@H]1C(OC)=C[C@]23CCCN2CCc2cc4c(cc2[C@H]13)OCO4	–	CD1 mice, plasma	subcutaneous, 1 mg/kg, 0.5 h	–	concentration	0.668 µg/mL
CC[C@H](C)[C@H](NC(=O)[C@H](CCCCN)NC(=O)CNC(=O)[C@H](CC(C)C)NC(=O)[C@@H](NC(=O)[C@H](C)NC(=O)[C@H](CCCCN)NC(=O)CNC(=O)[C@H](C)NC(=O)CNC(=O)[C@H](CCCCN)NC(=O)[C@H](CCSC)NC(=O)[C@H](CCCCN)NC(=O)[C@@H](NC(=O)[C@H](Cc1c[nH]c2ccccc12)NC(=O)[C@H](CC(C)C)NC(=O)[C@H](CCCCN)NC(=O)[C@H](CCCCN)NC(=O)[C@H](CC(C)C)NC(=O)[C@@H](N)CC(C)C)[C@@H](C)O)C(C)C)C(=O)N[C@@H](CCCCN)C(=O)NCC(=O)N[C@@H](CC(C)C)C(=O)N[C@@H](CC(C)C)C(=O)O	acrylamide quenching	DOPC vesicles, 250 µM lipid	2 µM, added: acrylamide	–	Stern-Volmer constant	1.44 ± 0.13 M⁻¹
O=c1cc(-c2ccccc2)oc2c(Br)c(O)c(O)c(O)c12	–	C57BL/6 mouse, plasma	oral, 50 mg/kg, single dose	–	AUC(0-inf)	1.11 µg·h/mL
N=C(N)NCc1ccc(C(=O)NCCCC[C@H](NC(=O)N[C@@H](CCC(=O)O)C(=O)O)C(=O)O)cc1[131I]	–	SCID mouse, PC-3 xenografts, heart	21 h	–	tissue uptake	0.01 %ID/g
CC[C@H](C)[C@H](NC(=O)[C@H](CCCCN)NC(=O)[C@@H](NC(=O)[C@H](CCC(N)=O)NC(=O)[C@H](CCCNC(=N)N)NC(=O)[C@@H](N)CC(=O)O)[C@@H](C)CC)C(=O)N[C@@H](Cc1c[nH]c2ccccc12)C(=O)N[C@@H](Cc1ccccc1)C(=O)N[C@@H](CCC(N)=O)C(=O)N[C@@H](CC(N)=O)C(=O)N[C@@H](CCCNC(=N)N)C(=O)N[C@@H](CCCNC(=N)N)C(=O)N[C@@H](CCSC)C(=O)N[C@@H](CCCCN)C(=O)N[C@@H](Cc1c[nH]c2ccccc12)C(=O)N[C@@H](CCCCN)C(=O)N[C@@H](CCCCN)C(=O)N[C@@H](CC(C)C)C(=O)N[C@@H](CC(=O)O)C(=O)N[C@@H](Cc1c[nH]c2ccccc12)C(=O)N[C@@H](CO)C(=O)N[C@@H](Cc1c[nH]c2ccccc12)C(=O)N[C@@H](CC(C)C)C(=O)O	open field	5XFAD transgenic mouse	intranasal, 0.1 mg/kg every 2 days, 30 days	–	locomotor activity	no effect
CC(C)C[C@H](NC(=O)[C@H](CCCCN)NC(=O)[C@H](CCC(=O)O)NC(=O)[C@H](C)NC(=O)[C@@H](NC(=O)[C@H](CCCCN)NC(=O)[C@H](CC(=O)O)NC(=O)[C@H](Cc1ccc(O)cc1)NC(=O)[C@H](Cc1ccccc1)NC(=O)[C@H](C)NC(=O)[C@H](CCCCN)NC(=O)[C@H](CC(C)C)NC(=O)[C@H](Cc1c[nH]c2ccccc12)NC(=O)[C@@H](N)CC(=O)O)C(C)C)C(=O)N[C@@H](CCCCN)C(=O)N[C@@H](CCC(=O)O)C(=O)N[C@@H](C)C(=O)N[C@@H](Cc1ccccc1)C(=O)N1CCC[C@H]1C(=O)N[C@@H](CC(=O)O)C(=O)N[C@@H](Cc1c[nH]c2ccccc12)C(=O)N[C@@H](C)C(=O)N[C@@H](CCCCN)C(=O)N[C@@H](C)C(=O)N[C@@H](C)C(=O)N[C@@H](Cc1ccc(O)cc1)C(=O)N[C@@H](CC(=O)O)C(=O)N[C@@H](CCCCN)C(=O)N[C@@H](C)C(=O)N[C@@H](C)C(=O)N[C@@H](CCC(=O)O)C(=O)N[C@@H](CCCCN)C(=O)N[C@@H](C)C(=O)N[C@@H](CCCCN)C(=O)N[C@@H](CCC(=O)O)C(=O)N[C@@H](C)C(=O)N[C@@H](C)C(=O)O	–	cynomolgus monkey male, plasma	intravenous infusion, 25 mg/kg every other day, day 27	–	Cmax	470 µg/mL
CC[C@H](C)[C@H](NC(=O)[C@H](CCC(=O)O)NC(=O)[C@H](CCC(=O)O)NC(=O)[C@H](Cc1ccccc1)NC(=O)[C@H](CC(=O)O)NC(=O)CNC(=O)[C@H](CC(N)=O)NC(=O)CNC(=O)CNC(=O)CNC(=O)CNC(=O)[C@@H]1CCCN1C(=O)[C@H](CCCNC(=N)N)NC(=O)[C@@H]1CCCN1C(=O)[C@H](N)Cc1ccccc1)C(=O)N1CCC[C@H]1C(=O)N[C@@H](CCC(=O)O)C(=O)N[C@@H](CCC(=O)O)C(=O)N[C@@H](Cc1ccc(O)cc1)C(=O)N[C@@H](CC(C)C)C(=O)O	LC-MS/MS	human plasma	-20 to 25 °C, three freeze-thaw cycles, nominal 240.0 ng/mL	–	concentration	0.239 ± 0.0045 µg/mL
CC(C)C[C@@H]1NC(=O)[C@@H](Cc2ccccc2)NC(=O)[C@H](CCN)NC(=O)[C@@H](NC(=O)[C@H](CN)NC(=O)[C@@H](NC(=O)CC(CN)Cc2ccccc2)[C@@H](C)O)CCNC(=O)[C@H]([C@@H](C)O)NC(=O)[C@H](CCN)NC(=O)[C@H](CCN)NC1=O (stereo partly shown)	ELISA	male CD-1 mouse, urine	subcutaneous, 25 mg/kg, 4 doses every 8 h, 24 h urine collection, nephrotoxicity	–	urinary cystatin C excretion	893 ng/24 h
C=C1C(=O)OC2C1CCC(Cn1cc(-c3cc(C(F)(F)F)cc(C(F)(F)F)c3)nn1)=C1CCC(C)(O)C12 (stereo not shown)	flow cytometry	mouse, bone marrow	dose not given	–	long-term HSC number	no effect
CN(C)C(CNC(=O)Nc1cc(C(F)(F)F)ccc1N1CCOCC1)c1ccncc1 (stereo not shown)	–	mouse, serum	intraperitoneal, 180 mg/kg single dose	–	serum sodium	145 mmol/L
Cc1cc(C)c(-c2cc(C)c(OP(=O)([O-])OCCC[C@H](C(=O)[O-])N3CCN(CC(=O)[O-])CCN(CC(=O)[O-])CCN(CC(=O)[O-])CC3)cc2C)c(C)c1.[Gd+3]	O-17 NMR	PBS	concentration not given, no protein	–	activation enthalpy water exchange	56.1 kJ/mol
CC[C@@H]1C[C@]1(NC(=O)[C@@H]1C[C@@]2(CN1C(=O)[C@@H](NC(=O)[C@@H](NC(=O)[C@@H]1CCCCN1C(C)C)C1CCCCC1)C(C)(C)C)C(C)(C)C21CCC1)C(=O)NS(=O)(=O)N1CCCC1	measured: nausea	human fasted	oral, 100 mg single dose	–	subjects with adverse event	0%
CC(C)[C@H](NC(=O)CNC(=O)[C@H](CCC(N)=O)NC(=O)[C@H](C)N)C(=O)O	unlikely related or unrelated	human	15 mg/kg/h, 2 h, continuous infusion	–	subjects with adverse events	16.7%
C/C=C/C=C/C/C=C/CCCCCCCc1cccc(O)c1O	–	female Kunming mice tumour-bearing, lungs	intravenous, 10 mg/kg, 2 h	–	tissue concentration	10900 ± 1340 ng/g
COCCOCCOCCOc1ccc(/C=C/C2=[N+]3C(=C(c4cc(OC)cc(OC)c4)c4c(C)c(I)c(/C=C/c5ccc(OCCOCCOCCOC)cc5)n4[B-]3(F)F)C(C)=C2I)cc1	DPBF absorbance decrease	DMSO	–	reference: methylene blue	singlet oxygen quantum yield	0.65
O=c1c2ccccc2[se]n1CCCCn1[se]c2ccccc2c1=O	–	20% Soluplus in water	24 h, 25 °C, 200 mg/mL	–	solubility	0.575 ± 0.034 mg/mL (≈ 1280 µM)
CCn1ccc(-c2cc(-c3cnn(C)c3)cc([C@@H](C)NC(=O)c3cc(OCCN(C)C)ccc3C)c2)n1	–	C57BL/6J mice, male	oral, 50 mg/kg, versus i.v. 10 mg/kg	–	oral bioavailability	72.8%
CN[C@](C)(C[18F])C(=O)O	–	mouse, blood	30 min, tumour-bearing	–	tracer uptake	1.8 %ID/g
CC(C)C[C@@H](NC(=O)[C@@H](CCCCN)NC(=O)CNC(=O)CNC(=O)[C@@H]1CSSC[C@H](N)C(=O)NCC(=O)N[C@@H](CCCNC(=N)N)C(=O)N[C@@H](CCCNC(=N)N)C(=O)N[C@@H](C)C(=O)NCC(=O)NCC(=O)N[C@@H](CO)C(=O)N1)C(=O)N[C@H](C)C(=O)N[C@H](CCCCN)C(=O)N[C@H](CC(C)C)C(=O)N[C@H](C)C(=O)N[C@H](CCCCN)C(=O)N[C@H](CCCCN)C(=O)N[C@H](CC(C)C)C(=O)N[C@H](C)C(=O)N[C@H](CCCCN)C(=O)N[C@H](CC(C)C)C(=O)N[C@H](C)C(=O)N[C@H](CCCCN)C(=O)O	–	cynomolgus monkey, plasma	intravenous, 3 mg/kg, infusion	–	MRT	1.28 h

Excerpt of the above:
SMILES	test	system	conditions	how to read	measurement	result
O=c1c2ccccc2[se]n1CCCCn1[se]c2ccccc2c1=O	–	20% Soluplus in water	24 h, 25 °C, 200 mg/mL	–	solubility	0.575 ± 0.034 mg/mL (≈ 1280 µM)
CCn1ccc(-c2cc(-c3cnn(C)c3)cc([C@@H](C)NC(=O)c3cc(OCCN(C)C)ccc3C)c2)n1	–	C57BL/6J mice, male	oral, 50 mg/kg, versus i.v. 10 mg/kg	–	oral bioavailability	72.8%
CN[C@](C)(C[18F])C(=O)O	–	mouse, blood	30 min, tumour-bearing	–	tracer uptake	1.8 %ID/g
CC(C)C[C@@H](NC(=O)[C@@H](CCCCN)NC(=O)CNC(=O)CNC(=O)[C@@H]1CSSC[C@H](N)C(=O)NCC(=O)N[C@@H](CCCNC(=N)N)C(=O)N[C@@H](CCCNC(=N)N)C(=O)N[C@@H](C)C(=O)NCC(=O)NCC(=O)N[C@@H](CO)C(=O)N1)C(=O)N[C@H](C)C(=O)N[C@H](CCCCN)C(=O)N[C@H](CC(C)C)C(=O)N[C@H](C)C(=O)N[C@H](CCCCN)C(=O)N[C@H](CCCCN)C(=O)N[C@H](CC(C)C)C(=O)N[C@H](C)C(=O)N[C@H](CCCCN)C(=O)N[C@H](CC(C)C)C(=O)N[C@H](C)C(=O)N[C@H](CCCCN)C(=O)O	–	cynomolgus monkey, plasma	intravenous, 3 mg/kg, infusion	–	MRT	1.28 h
